Results collected from several papers.
Lines come from different studies, so protocols differ. Several values in a cell are separate wells, animals, samples, runs or records. ± gives the spread as reported.

SMILES	test	system	setting	how to read	endpoint	result
CCN(CC)c1ccc2c(-c3ccccc3C(=O)OCCOCCOCC[18F])c3ccc(=[N+](CC)CC)cc-3oc2c1	microPET	rat, heart	dose not given, 5 min post injection		radioactivity concentration	16 ± 2 kBq/cm³
C=CC(=O)Nc1cc(Nc2nccc(-c3cn(C4CC4)c4ccccc34)n2)c(OC)cc1NC	radiolabelled metabolite profiling	human male, plasma	oral, 110 mg, 10 h		plasma concentration	12.5 ng/g
Brc1ccc(Nc2nc(NN=Cc3c[nH]c4ccccc34)nc(N3CCOCC3)n2)cc1		rat liver microsomes	in vivo extrapolated		CLint	14.9 mL/min
COc1cccc(C2CC(c3ccccc3Cl)Nc3nc(N)nn32)c1 (stereo not drawn)		male CD-1 mouse, plasma	intraperitoneal, 20 mg/kg, 30 min, single dose		concentration	158 µM
O=C(O)C1CN(Cc2ccc(-c3noc(-c4ccc(OCC[18F])c(C(F)(F)F)c4)n3)cc2)C1	biodistribution	C57BL/6 mouse, LPS-treated, liver	2 h		liver uptake	24.4 %ID/g
Cc1ccccc1/N=N/c1ccc(/N=N/c2c(O)ccc3ccccc23)c(C)c1		extracted rat blood QC samples	0.5 µg/L, 12 h, room temperature, short-term stability		measured concentration	0.501 µg/L
COc1ccc(/C=C/C2=[N+]3C(=C(CO)c4c(C)cc(/C=C/c5ccc(OC)cc5)n4[B-]3(F)F)C(C)=C2)cc1		acetonitrile	room temperature		luminescence quantum yield	10 ± 2%
NC12CNCCNCC(NCc3ccc(CNC(=O)CCCC(=O)NCc4ccc(-c5nncnn5)cc4)cc3)(CNCCNC1)CNCCNC2.[64Cu+2]	OLINDA dosimetry	muscle	24 h pretargeting interval, together with: huA33-TCO pretargeting		mean absorbed dose	0.0193 rad/mCi
CCCC[C@@H]1NC(=O)[C@@H](NC(=O)[C@H](CCC(=O)O)NC(=O)CNC(=O)CN2CCN(CC(=O)O)CCN(CC(=O)O)CCN(CC(=O)O)CC2)CCCCNC(=O)C[C@@H](C(N)=O)NC(=O)[C@H](C(C)C)NC(=O)[C@@H]2CCCN2C(=O)[C@H](CCCNC(=N)N)NC(=O)CNC(=O)[C@H](Cc2c[nH]c3ccccc23)NC(=O)[C@H](CCCNC(=N)N)NC(=O)[C@@H](Cc2ccccc2)NC(=O)[C@H](Cc2c[nH]cn2)NC(=O)[C@H](CCC(=O)O)NC1=O [gallium-67 labelled]		C57 mice, B16/F10 lung metastases	intravenous, 0.037 MBq, 2 h		intestine uptake	0.52 ± 0.18 %ID
CC1C(c2c(F)ccc(F)c2F)CC(N[14C](=O)c2cnc3c(c2)CC2(C3)C(=O)Nc3ncccc32)C(=O)N1CC(F)(F)F (stereo not drawn)	refers to: total radioactivity	human, urine	through last collection	relative to: dose	urinary excretion	~8% and 7.86% and 8%
CC(C)[C@H](NC(=O)CNC(=O)[C@H](CCC(N)=O)NC(=O)[C@H](C)N)C(=O)O		human male, plasma	intravenous infusion, 30 mg/kg single, 15 min infusion, geometric mean		half-life	22.2 min
COc1cc(CNC(=O)CCCC/C=C/C(C)C)ccc1N	metabolic stability	C57BL/6 mouse, liver microsomes	2 µM, 2 h		compound remaining	0.1%
Cn1c(=O)oc2ccc(-c3ccc(CC(C#N)NC(=O)C4CNCCCO4)c(F)c3)cc21 (stereo not drawn)		human	oral, 10 mg once daily, TEAE, multiple ascending dose		bilirubin increased incidence	0%
CCOC(=O)c1[nH]c(C)c(/C=C/C2=[N+]3C(=C(c4cc(OC)cc(OC)c4)c4c(C)c(I)c(/C=C/c5c(C)[nH]c(C(=O)OCC)c5C)n4[B-]3(F)F)C(C)=C2I)c1C		DMSO			log molar absorptivity	4.96 M⁻¹ cm⁻¹
C=C(c1ncc(C(=O)O)cn1)c1cc2c(cc1C)C(C)(C)CCC2(C)C		Sprague-Dawley rat, male, plasma	oral, 100 mg/kg, 12 h, sesame oil vehicle		HDL level	30 ± 10.8 mg/dL

Excerpt of the above:
SMILES	test	system	setting	how to read	endpoint	result
Cn1c(=O)oc2ccc(-c3ccc(CC(C#N)NC(=O)C4CNCCCO4)c(F)c3)cc21 (stereo not drawn)		human	oral, 10 mg once daily, TEAE, multiple ascending dose		bilirubin increased incidence	0%
